Measurements gathered from unrelated publications.
Compare with care: the assays were run in different laboratories. Numbers after ± are the reported error.
Route: intravenous

| Compound | host | medium | dose | time | tissue uptake |
| --- | --- | --- | --- | --- | --- |
| CCCC[C@H](NC(=O)[C@H](Cc1cccs1)NC(=O)[C@H](Cc1c[nH]cn1)NC(=O)CCNC(=O)[C@@H](NC(=O)[C@H](C)NC(=O)[C@H](Cc1c[nH]c2ccccc12)NC(=O)[C@H](CCC(N)=O)NC(=O)[C@H](Cc1cccs1)NC(=O)CN1CCC(NC(=O)CN(CCN(CCN(CC(=O)O)CC(=O)O)CC(=O)O)CC(=O)O)CC1)C(C)C)C(N)=O [indium-111 labelled] | Swiss nu/nu mouse, male, PC-3 tumour xenograft | pancreas | 10 pmol | 24 h | 2.4 ± 0.7 %ID/g |
| N=C(N)NCCC[C@@H]1NC(=O)[C@H](CCCCNC(=O)CNC(=O)CNC(=O)CNC(=O)CC[C@H](NC(=O)CNC(=O)CNC(=O)CNC(=O)[C@H](CCCCNC(=O)c2ccc(NN)nc2)NC(=O)c2ccc(NN)nc2)C(=O)NCC(=O)NCC(=O)NCC(=O)NCCCC[C@@H]2NC(=O)[C@@H](Cc3ccccc3)NC(=O)[C@H](CC(=O)O)NC(=O)CNC(=O)[C@H](CCCNC(=N)N)NC2=O)NC(=O)[C@@H](Cc2ccccc2)NC(=O)[C@H](CC(=O)O)NC(=O)CNC1=O [technetium-99m labelled] | athymic nude mouse, female, U-87 MG xenograft | intestine | 0.1 MBq | 1 h | 6.87 ± 2.98 %ID/g |
| CCCC[C@H](NC(=O)CCCCCCCNC(=O)c1ccc(NN)nc1)C(=O)N[C@H]1CC(=O)NCCCC[C@@H](C(N)=O)NC(=O)[C@H](Cc2c[nH]c3ccccc23)NC(=O)[C@H](CCCNC(=N)N)NC(=O)[C@@H](Cc2ccccc2)NC(=O)[C@H](Cc2c[nH]cn2)NC1=O [technetium-99m labelled] | C57 mouse, B16/F1 melanoma | urine | 0.037 MBq | 2 h | 88.5 ± 2.23 %ID |
| N=C(N)NCCC[C@H](NC(=O)[C@H](CCCCN)NC(=O)[C@H](CCC(N)=O)NC(=O)CCOCCOCCOCCNC(=O)CN1CCN(CC(=O)O)CCN(CC(=O)O)CCN(CC(=O)O)CC1)C(=O)N[C@@H](CCCCN)C(=O)N[C@@H](CCCNC(=N)N)C(=O)N[C@@H](CCCCN)C(=O)N[C@@H](CCCCN)C(=O)N[C@@H](CO)C(=O)N[C@@H](CCCNC(=N)N)C(=O)N[C@@H](Cc1ccc(O)cc1)C(=O)N[C@@H](CCCCN)C(=O)N[C@@H](CO)C(=O)O [copper-64 labelled] | C57BL/6 Jms mouse, male, B16-F10 melanoma | tumour | – | 60 min | 4.45 ± 0.61 %ID/g |
| CSCC[C@H](NC(=O)[C@H](CC(C)C)NC(=O)[C@H](Cc1c[nH]cn1)NC(=O)CNC(=O)[C@@H](NC(=O)[C@H](C)NC(=O)[C@H](Cc1c[nH]c2ccccc12)NC(=O)[C@H](CCC(N)=O)NC(=O)CCCCCNC(=O)CNC(=O)CNC(=O)CNC(=O)CSC(C)=O)C(C)C)C(N)=O [technetium-99m labelled] | Swiss mouse | liver | 18.5 MBq | 90 min | 1.58 ± 0.45 %ID/g |
| CCCC[C@H](NC(=O)CNC(=O)CNC(=O)c1ccc(NN)nc1)C(=O)N[C@H]1CC(=O)NCCCC[C@@H](C(N)=O)NC(=O)[C@H](Cc2c[nH]c3ccccc23)NC(=O)[C@H](CCCNC(=N)N)NC(=O)[C@@H](Cc2ccccc2)NC(=O)[C@H](Cc2c[nH]cn2)NC1=O [technetium-99m labelled] | C57 mouse, B16/F1 melanoma-bearing | bone | – | 4 h | 0.09 ± 0.01 %ID/g |
| CCCC[C@H](NC(=O)CNC(=O)[C@H](CO)NC(=O)CNC(=O)c1ccc(NN)nc1)C(=O)N[C@H]1CC(=O)NCCCC[C@@H](C(N)=O)NC(=O)[C@H](Cc2c[nH]c3ccccc23)NC(=O)[C@H](CCCNC(=N)N)NC(=O)[C@@H](Cc2ccccc2)NC(=O)[C@H](Cc2c[nH]cn2)NC1=O [technetium-99m labelled] | C57 mouse, B16/F1 melanoma | intestines | 0.037 MBq | 2 h | 0.72 ± 0.27 %ID |
| N=C(N)NCCC[C@@H]1NC(=O)[C@H](CCCCNC(=O)CNC(=O)CNC(=O)CNC(=O)CC[C@H](NC(=O)CNC(=O)CNC(=O)CNC(=O)c2ccc(NN=Cc3ccccc3S(=O)(=O)O)nc2)C(=O)NCC(=O)NCC(=O)NCC(=O)NCCCC[C@@H]2NC(=O)[C@@H](Cc3ccccc3)NC(=O)[C@H](CC(=O)O)NC(=O)CNC(=O)[C@H](CCCNC(=N)N)NC2=O)NC(=O)[C@@H](Cc2ccccc2)NC(=O)[C@H](CC(=O)O)NC(=O)CNC1=O [technetium-99m labelled] | athymic nu/nu mouse, female, MDA-MB-435 xenograft | kidney | – | 30 min | 17.5 ± 2 %ID/g |

Some of these lines once more:
| Compound | host | medium | dose | time | tissue uptake |
| --- | --- | --- | --- | --- | --- |
| N=C(N)NCCC[C@@H]1NC(=O)[C@H](CCCCNC(=O)CNC(=O)CNC(=O)CNC(=O)CC[C@H](NC(=O)CNC(=O)CNC(=O)CNC(=O)c2ccc(NN=Cc3ccccc3S(=O)(=O)O)nc2)C(=O)NCC(=O)NCC(=O)NCC(=O)NCCCC[C@@H]2NC(=O)[C@@H](Cc3ccccc3)NC(=O)[C@H](CC(=O)O)NC(=O)CNC(=O)[C@H](CCCNC(=N)N)NC2=O)NC(=O)[C@@H](Cc2ccccc2)NC(=O)[C@H](CC(=O)O)NC(=O)CNC1=O [technetium-99m labelled] | athymic nu/nu mouse, female, MDA-MB-435 xenograft | kidney | – | 30 min | 17.5 ± 2 %ID/g |
